Results pooled from the literature.
Each numbered part is a random draw from the data of one study; scales do not carry over between parts.
Chain of UniProt P53350 (whole entry, looked up): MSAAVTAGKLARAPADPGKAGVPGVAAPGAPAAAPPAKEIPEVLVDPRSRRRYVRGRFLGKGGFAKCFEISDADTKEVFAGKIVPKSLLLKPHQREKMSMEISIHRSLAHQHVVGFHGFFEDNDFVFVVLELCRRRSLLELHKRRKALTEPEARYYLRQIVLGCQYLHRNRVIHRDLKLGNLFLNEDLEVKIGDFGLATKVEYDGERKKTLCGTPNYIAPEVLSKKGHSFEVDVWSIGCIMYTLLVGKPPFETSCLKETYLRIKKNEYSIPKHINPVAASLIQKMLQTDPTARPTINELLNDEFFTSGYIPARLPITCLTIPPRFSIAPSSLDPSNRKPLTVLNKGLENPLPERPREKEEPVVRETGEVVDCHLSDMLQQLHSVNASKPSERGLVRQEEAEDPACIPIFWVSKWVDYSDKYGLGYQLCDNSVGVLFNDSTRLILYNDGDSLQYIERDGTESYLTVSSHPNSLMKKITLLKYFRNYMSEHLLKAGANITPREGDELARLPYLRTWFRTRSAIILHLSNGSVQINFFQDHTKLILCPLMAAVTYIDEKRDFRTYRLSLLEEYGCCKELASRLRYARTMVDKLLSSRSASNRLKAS
Chain of UniProt Q7L7X3 (whole entry, looked up): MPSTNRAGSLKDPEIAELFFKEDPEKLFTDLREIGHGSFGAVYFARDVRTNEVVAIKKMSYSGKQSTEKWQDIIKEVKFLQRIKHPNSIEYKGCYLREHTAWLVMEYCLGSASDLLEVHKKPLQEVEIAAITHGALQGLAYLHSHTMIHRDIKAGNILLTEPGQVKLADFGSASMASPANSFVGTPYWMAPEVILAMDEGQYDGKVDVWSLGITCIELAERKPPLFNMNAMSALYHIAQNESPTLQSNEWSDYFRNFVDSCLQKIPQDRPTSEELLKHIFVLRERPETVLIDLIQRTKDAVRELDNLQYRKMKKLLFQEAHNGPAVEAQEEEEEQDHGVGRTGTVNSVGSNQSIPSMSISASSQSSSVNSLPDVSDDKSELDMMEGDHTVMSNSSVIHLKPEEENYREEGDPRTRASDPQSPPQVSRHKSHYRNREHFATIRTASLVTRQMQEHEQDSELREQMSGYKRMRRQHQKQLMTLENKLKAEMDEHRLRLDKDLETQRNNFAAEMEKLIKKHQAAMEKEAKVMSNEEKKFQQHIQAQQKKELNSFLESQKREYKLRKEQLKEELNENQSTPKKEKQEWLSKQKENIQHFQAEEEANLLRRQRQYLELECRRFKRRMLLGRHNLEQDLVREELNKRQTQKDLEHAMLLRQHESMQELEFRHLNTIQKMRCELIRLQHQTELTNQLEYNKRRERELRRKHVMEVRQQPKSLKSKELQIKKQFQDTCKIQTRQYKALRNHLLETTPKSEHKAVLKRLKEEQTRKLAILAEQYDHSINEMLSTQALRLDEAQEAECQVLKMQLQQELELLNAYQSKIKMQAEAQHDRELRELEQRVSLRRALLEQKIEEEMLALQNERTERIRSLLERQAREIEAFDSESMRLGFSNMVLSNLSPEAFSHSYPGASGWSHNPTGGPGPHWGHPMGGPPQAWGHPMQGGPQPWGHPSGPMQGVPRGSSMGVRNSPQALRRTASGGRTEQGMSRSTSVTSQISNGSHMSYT
Chain of UniProt P80192 (whole entry, looked up): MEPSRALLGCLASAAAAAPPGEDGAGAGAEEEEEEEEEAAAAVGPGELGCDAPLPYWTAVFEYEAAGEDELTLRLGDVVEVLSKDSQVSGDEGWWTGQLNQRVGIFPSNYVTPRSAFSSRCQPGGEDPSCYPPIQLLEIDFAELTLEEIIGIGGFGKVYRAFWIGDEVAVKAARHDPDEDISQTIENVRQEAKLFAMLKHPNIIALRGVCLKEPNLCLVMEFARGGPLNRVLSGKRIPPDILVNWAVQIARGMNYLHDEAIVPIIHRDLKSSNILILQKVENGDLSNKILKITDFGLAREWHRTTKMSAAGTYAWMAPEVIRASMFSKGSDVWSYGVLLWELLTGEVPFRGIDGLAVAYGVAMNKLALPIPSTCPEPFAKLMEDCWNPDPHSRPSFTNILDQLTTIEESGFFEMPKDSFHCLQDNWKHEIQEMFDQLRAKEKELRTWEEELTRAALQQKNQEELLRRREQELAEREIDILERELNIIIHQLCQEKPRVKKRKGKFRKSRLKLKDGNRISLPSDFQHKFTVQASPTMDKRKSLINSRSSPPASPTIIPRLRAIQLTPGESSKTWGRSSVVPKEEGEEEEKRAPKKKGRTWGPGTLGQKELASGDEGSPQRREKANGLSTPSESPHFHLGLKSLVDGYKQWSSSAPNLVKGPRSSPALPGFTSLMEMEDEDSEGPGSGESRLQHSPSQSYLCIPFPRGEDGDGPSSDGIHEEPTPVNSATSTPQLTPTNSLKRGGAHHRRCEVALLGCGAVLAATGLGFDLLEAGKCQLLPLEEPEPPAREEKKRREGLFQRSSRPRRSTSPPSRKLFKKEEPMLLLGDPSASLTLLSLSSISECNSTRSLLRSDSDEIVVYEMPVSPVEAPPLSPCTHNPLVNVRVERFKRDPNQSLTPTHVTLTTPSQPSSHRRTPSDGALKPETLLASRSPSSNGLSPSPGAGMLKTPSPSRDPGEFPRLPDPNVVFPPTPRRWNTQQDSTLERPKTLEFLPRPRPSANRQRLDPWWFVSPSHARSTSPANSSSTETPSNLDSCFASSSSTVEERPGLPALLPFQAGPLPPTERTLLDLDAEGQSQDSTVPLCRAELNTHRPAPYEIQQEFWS
Chain of UniProt P08631 (whole entry, looked up): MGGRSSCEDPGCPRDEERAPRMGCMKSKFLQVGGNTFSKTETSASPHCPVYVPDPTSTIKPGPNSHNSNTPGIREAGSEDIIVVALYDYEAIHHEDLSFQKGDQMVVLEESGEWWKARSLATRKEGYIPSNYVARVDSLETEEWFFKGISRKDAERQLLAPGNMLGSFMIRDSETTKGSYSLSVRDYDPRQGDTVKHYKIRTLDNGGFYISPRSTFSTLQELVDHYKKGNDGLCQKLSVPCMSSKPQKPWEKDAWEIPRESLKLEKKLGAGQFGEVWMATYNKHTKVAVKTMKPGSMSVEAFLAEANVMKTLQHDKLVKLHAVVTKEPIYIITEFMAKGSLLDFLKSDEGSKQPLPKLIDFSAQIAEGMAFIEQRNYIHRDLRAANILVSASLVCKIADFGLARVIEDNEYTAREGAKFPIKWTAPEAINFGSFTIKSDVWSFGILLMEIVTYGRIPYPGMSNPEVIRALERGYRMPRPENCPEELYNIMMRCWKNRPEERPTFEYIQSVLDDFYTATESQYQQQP
Chain of UniProt Q04771 (whole entry, looked up): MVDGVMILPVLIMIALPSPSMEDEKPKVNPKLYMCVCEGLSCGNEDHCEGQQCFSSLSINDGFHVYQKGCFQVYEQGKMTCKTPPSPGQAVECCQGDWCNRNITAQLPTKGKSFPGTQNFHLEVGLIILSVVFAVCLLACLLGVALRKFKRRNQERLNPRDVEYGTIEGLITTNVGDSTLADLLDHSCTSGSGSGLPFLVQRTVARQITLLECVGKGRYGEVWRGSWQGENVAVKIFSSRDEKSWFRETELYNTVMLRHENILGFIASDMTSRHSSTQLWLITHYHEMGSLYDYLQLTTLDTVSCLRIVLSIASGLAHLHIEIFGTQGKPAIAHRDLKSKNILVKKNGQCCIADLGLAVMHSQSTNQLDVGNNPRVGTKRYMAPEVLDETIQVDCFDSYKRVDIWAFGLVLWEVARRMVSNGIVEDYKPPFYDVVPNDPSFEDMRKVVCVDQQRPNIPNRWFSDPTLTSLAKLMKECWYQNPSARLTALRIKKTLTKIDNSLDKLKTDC
Chain of UniProt Q96BR1 (whole entry, looked up): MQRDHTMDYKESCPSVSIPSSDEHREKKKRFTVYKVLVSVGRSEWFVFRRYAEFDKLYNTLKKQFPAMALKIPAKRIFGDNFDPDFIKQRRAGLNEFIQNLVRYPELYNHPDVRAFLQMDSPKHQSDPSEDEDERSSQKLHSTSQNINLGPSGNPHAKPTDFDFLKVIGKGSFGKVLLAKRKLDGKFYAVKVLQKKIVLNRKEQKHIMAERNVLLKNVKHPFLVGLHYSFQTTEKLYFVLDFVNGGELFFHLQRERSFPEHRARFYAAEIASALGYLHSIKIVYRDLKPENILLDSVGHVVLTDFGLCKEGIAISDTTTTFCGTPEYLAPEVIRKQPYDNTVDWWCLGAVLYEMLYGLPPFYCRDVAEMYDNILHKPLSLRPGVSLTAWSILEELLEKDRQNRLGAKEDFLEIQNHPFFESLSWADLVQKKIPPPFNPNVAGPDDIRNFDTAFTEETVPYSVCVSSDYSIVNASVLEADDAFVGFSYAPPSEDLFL

Set 1 — Compound: COc1ccc2c(c1)/C(=C/c1cnc[nH]1)C(=O)N2; observed: enzyme activity; mode: inhibitor; concentration: 0.5 µM; reference: control
The remaining activity was 58% (Mitogen-activated protein kinase kinase kinase 9 (MAP3K9, Homo sapiens, UniProt P80192)).
It gave 97.8% for remaining activity (Insulin receptor-related protein (INSRR, Homo sapiens, UniProt P14616)).
It gave 53.4% for remaining activity (Serine/threonine-protein kinase ULK1 (ULK1, Homo sapiens, UniProt O75385)).
For Dual specificity tyrosine-phosphorylation-regulated kinase 2 (DYRK2, Homo sapiens, UniProt Q92630): remaining activity read 76.9%.
Phosphorylase b kinase gamma catalytic chain, liver/testis isoform (PHKG2, Homo sapiens, UniProt P15735) — remaining activity: 88.3%.
Serine/threonine-protein kinase Sgk3 (SGK3, Homo sapiens, UniProt Q96BR1) — remaining activity: 101%.
Fibroblast growth factor receptor 2 (FGFR2, Homo sapiens, UniProt P21802) — remaining activity: 84%.
It gave 91.2% for remaining activity (Serine/threonine-protein kinase VRK1 (VRK1, Homo sapiens, UniProt Q99986)).
The remaining activity was 38% (Serine/threonine-protein kinase D3 (PRKD3, Homo sapiens, UniProt O94806)).
Activin receptor type-1 (ACVR1, Homo sapiens, UniProt Q04771) — remaining activity: 105%.
The remaining activity was 30.1% (BDNF/NT-3 growth factors receptor (NTRK2, Homo sapiens, UniProt Q16620)).
Serine/threonine-protein kinase TAO1 (TAOK1, Homo sapiens, UniProt Q7L7X3) — remaining activity: 82.3%.
For Receptor-interacting serine/threonine-protein kinase 2 (RIPK2, Homo sapiens, UniProt O43353): remaining activity read 90%.
For Activated CDC42 kinase 1 (TNK2, Homo sapiens, UniProt Q07912): remaining activity read 92.6%.
It gave 96.1% for remaining activity (Tyrosine-protein kinase HCK (HCK, Homo sapiens, UniProt P08631)).
It gave 103% for remaining activity (Serine/threonine-protein kinase PLK1 (PLK1, Homo sapiens, UniProt P53350)).
RAF proto-oncogene serine/threonine-protein kinase (RAF1, Homo sapiens, UniProt P04049) — remaining activity: 98.3%.
The remaining activity was 106% (Dual serine/threonine and tyrosine protein kinase (DSTYK, Homo sapiens, UniProt Q6XUX3)).

Set 2 — organism: Vesicular stomatitis virus; observed: pseudovirus infection; technique: FDA-approved drug library screen; concentration: concentration not given; notes: VSV-G control pseudotype; reference: vehicle
`Cc1onc(-c2ccccc2)c1C(=O)N[C@@H]1C(=O)N2[C@@H]1SC(C)(C)[C@@H]2C(=O)[O-].[Na+]` gave a GFP-positive cells of 112%.
For `CC(C)[N+]1(C)[C@@H]2CC[C@H]1C[C@@H](OC(=O)C(CO)c1ccccc1)C2.O.[Br-]` (stereo partly shown), the GFP-positive cells was 103%.
`C[C@@H](Oc1cc(-c2cnn(C3CCNCC3)c2)cnc1N)c1c(Cl)ccc(F)c1Cl` has a GFP-positive cells of 60%.
With `C[C@]12CC[C@@H]3c4ccc(O)cc4CC[C@H]3[C@@H]1CCC2=O` the GFP-positive cells was 108%.
With `O=C(c1cc(Cc2n[nH]c(=O)c3ccccc23)ccc1F)N1CCN(C(=O)C2CC2)CC1` the GFP-positive cells was 94.7%.
The GFP-positive cells of `O=C([O-])C1=C(CSc2nnnn2CS(=O)(=O)[O-])CS[C@@H]2[C@H](NC(=O)[C@H](O)c3ccccc3)C(=O)N12.[Na+].[Na+]` is reported as 129%.
The GFP-positive cells of `NC(=O)NO` is reported as 89.8%.
For `Nc1ncn([C@@H]2O[C@H](CO)[C@@H](O)[C@H]2O)c(=O)n1`, the GFP-positive cells was 61.8%.
`CC(=O)[C@@]1(O)CC[C@H]2[C@@H]3CCC4=CC(=O)CC[C@]4(C)[C@H]3CC[C@@]21C` has a GFP-positive cells of 105%.
`O=c1[nH]cc(F)c(=O)[nH]1` has a GFP-positive cells of 106%.
For `CC(=O)OC[C@H]1O[C@@H]([S-])[C@H](OC(C)=O)[C@@H](OC(C)=O)[C@@H]1OC(C)=O.CCP(CC)CC.[Au+]`, the GFP-positive cells was -0.11%.
With `Cl.Cn1c(CCCC(=O)O)nc2cc(N(CCCl)CCCl)ccc21` the GFP-positive cells was 113%.
The GFP-positive cells of `Nc1ccc(S(=O)(=O)c2ccc(N)cc2)cc1` is reported as 69%.
The GFP-positive cells of `COc1ccc2[n-]c([S@@+]([O-])Cc3ncc(C)c(OC)c3C)nc2c1.[Na+]` is reported as 116%.
The GFP-positive cells of `Cc1c(OCC(F)(F)F)ccnc1C[S@@+]([O-])c1nc2ccccc2[nH]1` is reported as 105%.
For `CO/N=C(\C(=O)N[C@@H]1C(=O)N2C(C(=O)O)=C(CSc3nnnn3C)CS[C@H]12)c1csc(N)n1.CO/N=C(\C(=O)N[C@@H]1C(=O)N2C(C(=O)O)=C(CSc3nnnn3C)CS[C@H]12)c1csc(N)n1.Cl`, the GFP-positive cells was 104%.
`CC(C)(S)[C@@H](N)C(=O)O` gave a GFP-positive cells of 102%.
The GFP-positive cells of `COc1cc2ncnc(Nc3ccc(F)c(Cl)c3)c2cc1OCCCN1CCOCC1` is reported as 111%.
The GFP-positive cells of `Nc1nc(N)c2nc(-c3ccccc3)c(N)nc2n1` is reported as 94%.
For `COc1ccccc1OCCNCC(O)COc1cccc2[nH]c3ccccc3c12.O=P(O)(O)O` (stereo not shown), the GFP-positive cells was 81.1%.
`O=C(O)C(O)C(O)C(=O)O.c1cnc2cc3c(cc2n1)[C@@H]1CNC[C@H]3C1` gave a GFP-positive cells of 142%.
`C[S+](C)[O-]` has a GFP-positive cells of 108%.
The GFP-positive cells of `Cl.N=C(N)NN` is reported as 78.7%.
`C[C@]12C=CC(=O)C=C1CC[C@@H]1[C@@H]2[C@@H](O)C[C@@]2(C)[C@H]1CC[C@]2(O)C(=O)COP(=O)([O-])[O-].[Na+].[Na+]` gave a GFP-positive cells of 95%.
For `Cc1cccc(CN2CCN(C(c3ccccc3)c3ccc(Cl)cc3)CC2)c1.Cl.Cl` (stereo not shown), the GFP-positive cells was 119%.

Set 3 — host: male CD-1 mouse; route: subcutaneous; dose: dose not given
Structure (SMILES): COc1cc(C(=O)OCCCN2CCCN(CCCOC(=O)c3cc(OC)c(OC)c(OC)c3)CC2)cc(OC)c1OC
For dorsal root ganglia; 0.5 h: tissue concentration read 481 ng/mL.
The tissue concentration was 1530 ng/mL (dorsal root ganglia; 0.1667 h).
The tissue concentration was 287 ng/mL (trigeminal ganglion; 0.5 h).
It gave 2.8 ng/mL for tissue concentration (trigeminal ganglion; 8 h).
For dorsal root ganglia; 4.5 h: tissue concentration read 33.7 ng/mL.
dorsal root ganglia; 1.5 h — tissue concentration: 369 ng/mL.
trigeminal ganglion; 1.5 h — tissue concentration: 525 ng/mL.
dorsal root ganglia; 12 h — tissue concentration: 4.12 ng/mL.

Set 4 — observed: cell-free assay; concentration: 10 µM
Target: Sodium-dependent dopamine transporter (SLC6A3, Homo sapiens, UniProt Q01959)
Chain of UniProt Q01959 (whole entry, looked up): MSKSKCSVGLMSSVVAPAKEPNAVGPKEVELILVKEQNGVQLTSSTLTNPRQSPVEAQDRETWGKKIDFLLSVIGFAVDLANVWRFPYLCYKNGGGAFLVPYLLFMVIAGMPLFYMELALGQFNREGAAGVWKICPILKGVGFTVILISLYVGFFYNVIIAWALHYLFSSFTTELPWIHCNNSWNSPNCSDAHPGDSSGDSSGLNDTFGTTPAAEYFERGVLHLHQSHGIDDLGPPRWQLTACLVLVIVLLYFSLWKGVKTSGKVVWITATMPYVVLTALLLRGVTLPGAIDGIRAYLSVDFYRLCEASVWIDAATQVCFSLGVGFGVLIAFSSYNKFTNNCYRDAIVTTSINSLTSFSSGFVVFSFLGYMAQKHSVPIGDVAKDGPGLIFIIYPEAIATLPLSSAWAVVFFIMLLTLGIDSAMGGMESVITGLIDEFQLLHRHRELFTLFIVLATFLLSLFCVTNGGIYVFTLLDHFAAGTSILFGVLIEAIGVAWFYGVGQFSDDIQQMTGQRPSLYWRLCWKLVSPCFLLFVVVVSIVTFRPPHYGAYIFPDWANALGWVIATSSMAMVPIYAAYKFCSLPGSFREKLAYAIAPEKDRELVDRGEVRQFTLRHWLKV
The inhibition of `Cc1c(C(=O)O)cc(-c2ccc(C3CCNCC3)cc2)c2ccc(-c3ccc(C(F)(F)F)cc3)cc12` is reported as 31.2%.
With `c1ccc(N2CCN(Cc3nc4ccccc4[nH]3)CC2)nc1` the inhibition was -2.13%.
The inhibition of `C[C@H](c1ccc(F)cc1)N(Cc1ccc(Cl)c(C(=O)O)c1)C(=O)c1cnc2ccccc2c1` is reported as -12.3%.
With `Nc1nc(NCc2ccccc2)nc(-c2ccccc2CO)n1` the inhibition was 18.1%.
For `Cc1ccc(-c2cnc([C@@]3(O)CC[C@H](C(=O)O)C(C)(C)C3)s2)cc1Nc1cccc(C(F)(F)F)n1`, the inhibition was 71%.
`CC(C)(C)OC(=O)N1CCCC1CNC1CCC(c2cc(F)ccc2F)(S(=O)(=O)c2ccc(Cl)cc2)CC1` (stereo not shown) gave an inhibition of 95.9%.
With `O=C(N[C@H]1CCCCC/C=C\C2C[C@@]2(C(=O)O)NC(=O)[C@@H]2C[C@@H](Oc3ccncc3)CN2C1=O)OC1CCCC1` (stereo partly shown) the inhibition was -13%.
With `COc1cc(C(=O)O)ncc1C#Cc1ccccc1NS(=O)(=O)c1cccc2c(N(C)C)ccnc12` the inhibition was 80.3%.
With `CN(C)C(=O)Cn1cc(-c2nc(C3(c4ccc(-c5cnc(N)nc5)cc4)CC3)no2)cn1` the inhibition was 52.4%.
With `CC1CCN(c2ccnc(NCc3cn(C)cn3)n2)CC1` the inhibition was 20.6%.
With `Cc1noc([C@H]2C[C@@H](c3ccc(C(F)(F)F)cc3)CN(C(=O)N3CCS(=O)(=O)C3)C2)n1` the inhibition was 5.46%.
For `Cc1c(NC(=O)c2cc(C(N)=O)nc3cc(F)ccc23)c(C(F)(F)F)nn1Cc1ccc(C#N)cc1`, the inhibition was 8.22%.
`CS(=O)(=O)c1cc(C2(NC(=O)c3cncc4c3cnn4-c3ccc(F)cc3)CC2)ccn1` has an inhibition of 22.5%.
The inhibition of `CO[C@H]1CC[C@H](CNc2ccc(S(=O)(=O)NC(=O)c3ccc(N4CCN(CC5=C(c6ccc(Cl)cc6)CC(C)(C)CC5)CC4)cc3Oc3cnc4[nH]ccc4c3)cc2[N+](=O)[O-])CC1` is reported as -13.1%.
The inhibition of `CC1=C(C#N)C(c2ccc3[nH]nc(C)c3c2)C(C#N)=C(C)N1` is reported as -13.9%.
For `CCOc1ccc(S(=O)(=O)Nc2ccc(Cl)cc2C#Cc2cnc(C(=O)O)cc2OC)c2ncccc12`, the inhibition was 23.4%.
`COCCOc1nc(-c2ccc(Cl)nc2)nc2c1CN(C(=O)c1ncn3ccccc13)CC2` gave an inhibition of -16.6%.
With `O=C(NNS(=O)(=O)c1ccccc1F)c1cc(F)cc(-c2ccccn2)c1` the inhibition was -27.1%.
The inhibition of `C[C@@H](NC(=O)Nc1cc2[nH]ncc2c(CO)n1)c1ccccc1` is reported as 46.5%.
The inhibition of `Cc1ccccc1Oc1cc(-n2c(=O)cc(C(F)(F)F)[nH]c2=O)c2ccccc2c1Cl` is reported as -24.1%.
For `Nc1nc(NCc2ccccc2)nc(-c2cccc(CO)c2)n1`, the inhibition was -9.76%.
The inhibition of `C[C@H](c1ccc(F)cc1)N(Cc1cccc(C(=O)O)c1)C(=O)c1cnc2ccccc2c1` is reported as -18.8%.
For `CC(=O)Nc1ncc(CN2CCC[C@H](Cc3cc(C)nc(C)c3)C2)s1`, the inhibition was 13.4%.
The inhibition of `CS(=O)(=O)N1CCCC(NC(=O)[C@H](CCC2CCCCC2)NC(=O)c2ccc(CNC(=O)c3cnc4ccccn34)cc2)C1` (stereo partly shown) is reported as 11.5%.
With `O=c1nc(-c2ccccn2)sc2ccccc12` the inhibition was -3.83%.

Repeated from above (set 4):
With `Cc1noc([C@H]2C[C@@H](c3ccc(C(F)(F)F)cc3)CN(C(=O)N3CCS(=O)(=O)C3)C2)n1` the inhibition was 5.46%.
For `Cc1c(NC(=O)c2cc(C(N)=O)nc3cc(F)ccc23)c(C(F)(F)F)nn1Cc1ccc(C#N)cc1`, the inhibition was 8.22%.
`CS(=O)(=O)c1cc(C2(NC(=O)c3cncc4c3cnn4-c3ccc(F)cc3)CC2)ccn1` has an inhibition of 22.5%.
The inhibition of `CO[C@H]1CC[C@H](CNc2ccc(S(=O)(=O)NC(=O)c3ccc(N4CCN(CC5=C(c6ccc(Cl)cc6)CC(C)(C)CC5)CC4)cc3Oc3cnc4[nH]ccc4c3)cc2[N+](=O)[O-])CC1` is reported as -13.1%.
The inhibition of `CC1=C(C#N)C(c2ccc3[nH]nc(C)c3c2)C(C#N)=C(C)N1` is reported as -13.9%.
For `CCOc1ccc(S(=O)(=O)Nc2ccc(Cl)cc2C#Cc2cnc(C(=O)O)cc2OC)c2ncccc12`, the inhibition was 23.4%.
`COCCOc1nc(-c2ccc(Cl)nc2)nc2c1CN(C(=O)c1ncn3ccccc13)CC2` gave an inhibition of -16.6%.
With `O=C(NNS(=O)(=O)c1ccccc1F)c1cc(F)cc(-c2ccccn2)c1` the inhibition was -27.1%.
The inhibition of `C[C@@H](NC(=O)Nc1cc2[nH]ncc2c(CO)n1)c1ccccc1` is reported as 46.5%.
The inhibition of `Cc1ccccc1Oc1cc(-n2c(=O)cc(C(F)(F)F)[nH]c2=O)c2ccccc2c1Cl` is reported as -24.1%.
For `Nc1nc(NCc2ccccc2)nc(-c2cccc(CO)c2)n1`, the inhibition was -9.76%.
The inhibition of `C[C@H](c1ccc(F)cc1)N(Cc1cccc(C(=O)O)c1)C(=O)c1cnc2ccccc2c1` is reported as -18.8%.
